Assay results collected from several papers.
Each line is one published result; not all experiments were run side by side. Numbers after ± are the reported error.
Sequence of UniProt P25929 (whole entry, unmodified, looked up): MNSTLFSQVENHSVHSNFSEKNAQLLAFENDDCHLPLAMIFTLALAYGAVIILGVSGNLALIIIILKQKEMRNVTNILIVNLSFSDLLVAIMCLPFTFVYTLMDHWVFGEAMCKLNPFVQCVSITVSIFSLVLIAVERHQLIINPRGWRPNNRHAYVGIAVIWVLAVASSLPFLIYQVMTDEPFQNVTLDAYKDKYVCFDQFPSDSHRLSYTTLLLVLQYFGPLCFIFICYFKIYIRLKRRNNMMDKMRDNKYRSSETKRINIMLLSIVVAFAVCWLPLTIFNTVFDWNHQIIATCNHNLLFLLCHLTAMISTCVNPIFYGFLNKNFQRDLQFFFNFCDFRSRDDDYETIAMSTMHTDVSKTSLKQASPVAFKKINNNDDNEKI

SMILES | target or system | assay | test system | conditions | how to read | measurement | result
COc1ccc(NC(=O)COc2ccc(/C=C/C(C)=N/O)cc2OC)cc1 | SH-SY5Y | flow cytometry |  | 5 µM, added: amyloid beta 10 µM |  | TNF-α expressing cells | 35.3%
Cn1c(=O)oc2ccc(-c3ccc(CC(C#N)NC(=O)C4CNCCCO4)c(F)c3)cc21 (stereo not drawn) |  |  | human | oral, 10 mg once daily, TEAE, multiple ascending dose |  | urine RBC positive incidence | 0%
COc1cc([C@@H]2OC[C@@H]3[C@H]2CO[C@H]3c2cc(OC)c(O)c(OC)c2)cc(OC)c1O | HepG2, palmitic acid-induced insulin resistance |  |  | 10.0 µM, 24 h |  | glucose consumption | 8.25 ± 0.34 mM
CC(=O)OC[C@H]1O[C@@H](Sc2sc(C(=O)c3ccc(C)cc3)c(N)c2-c2nc3ccccc3s2)[C@H](OC(C)=O)[C@@H](OC(C)=O)[C@H]1OC(C)=O | MDA-MB-231 breast cancer | SRB |  | 10 µM, 48 h |  | growth percent | 73%
CC[C@H](C)[C@H](NC(=O)[C@@H]1CCCN1C(=O)[C@@H](N)C(C)C)C(=O)N[C@@H](C)C(N)=O | PC-12 | Aβ42-induced neurotoxicity, inhibitor, MTT |  | concentration not given, 6 h, 37 °C, peptide to Aβ42 1:1, added: Aβ42 2 µM | baseline: untreated cells | viability | 93%
CCCCn1c2ccccc2c2ccnc(-c3ccc(OC)cc3)c21 | PC-12 |  |  | 200 µM, 48 h |  | viability inhibition | 58 ± 5.39%
C(=C/c1ccccc1)/c1ccccc1 | THP-1 | cell proliferation, CellTiter-Glo |  | 24 h, lowest dose with significant inhibition | baseline: vehicle | lowest effective concentration | 2 µM
COc1cc(CNC(=O)C[C@H](C)CCC=C(C)C)ccc1OCc1cn(-c2ccccc2[N+](=O)[O-])nn1 | SF-268 CNS cancer cells | SRB |  | 10 µM, 48 h |  | growth percent | 78.1%
COc1ccc(CC(C)=C(c2ccc(Cl)cc2)c2ccc(OCCN3CCCCC3)cc2)cc1 | NCI-60 tumour cell lines |  |  | 10 µM, mean over cell lines |  | growth inhibition | 5.84%
N=C(N)NCCC[C@@H]1NC(=O)[C@H](CCCCNC(=S)Nc2ccc(CC3CN(CC(=O)O)CCN(CC(=O)O)CCN(CC(=O)O)CCN3CC(=O)O)cc2)NC(=O)[C@@H](Cc2ccc(O)cc2)NC(=O)[C@H](CC(=O)O)NC(=O)CNC1=O (stereo partly drawn) [actinium-225 labelled] |  |  | U-87 MG tumour-bearing mice | 1 h |  | tumour to blood ratio | 12
COc1cc(CNC(=O)C[C@H](C)CCC=C(C)C)ccc1OCc1cn(-c2ccccc2Cl)nn1 | Malme-3M melanoma cells | SRB |  | 10 µM, 48 h |  | growth percent | 68.2%
CC(=NN=c1sc(C(=O)c2ccccc2)nn1-c1ccccc1)c1ccc(S(=O)(=O)N2CCC(C)CC2)cc1 | HepG2 | flow cytometry |  | 3.31 µM, 72 h |  | cells in %G2/M | 38.5%
CC(=O)O[C@H]1C(=O)[C@]2(C)[C@@H](OC(=O)[C@H](N)CSC3CC(=O)N(CCC(=O)Nc4ccc(-c5ccc(/N=N/c6ccc7c(S(=O)(=O)O)cc(S(=O)(=O)O)c(N)c7c6O)c(C)c5)cc4C)C3=O)C[C@H]3OC[C@@]3(OC(C)=O)[C@H]2[C@H](OC(=O)c2ccccc2)[C@]2(O)C[C@H](OC(=O)[C@H](O)[C@@H](NC(=O)c3ccccc3)c3ccccc3)C(C)=C1C2(C)C (stereo partly drawn) | U-87 MG | flow cytometry |  | concentration not given, 4 h |  | cellular uptake | ~23.2%
[64Cu+2].c1cnc(CNCc2ccc(CN3CCCN4CCNCCCN(CC4)CC3)cc2)nc1 | CXCR4 |  | NOD/SCID mouse, U87 and U87-stb-CXCR4 xenografts, stomach | iv, 90 min, ex vivo |  | tissue uptake | 2.98 ± 0.73 %ID/g
CC/C=C\C/C=C\C/C=C\C/C=C\C/C=C\C/C=C\CCC(=O)Nc1ccn(C2OC(CO)C(O)C2(F)F)c(=O)n1 (stereo not drawn) | SW-620 | NCI60 screen |  |  |  | TGI | 23.2 µM
COc1cc(CNC(=O)C[C@H](C)CCC=C(C)C)ccc1OCc1cn(-c2ccc(F)cc2)nn1 | OVCAR-4 ovarian cancer cells | SRB |  | 10 µM, 48 h |  | growth percent | 73.1%
CSCC[C@H](NC(=O)[C@H](CC(C)C)NC(=O)[C@H](Cc1c[nH]cn1)NC(=O)CNC(=O)[C@@H](NC(=O)[C@H](C)NC(=O)[C@H](Cc1c[nH]c2ccccc12)NC(=O)[C@H](CCC(N)=O)NC(=O)CCOCCOCCOCCOCCNC(=O)CN1CCN(CC(=O)O)CCN(CC(=O)O)CCN(CC(=O)O)CC1)C(C)C)C(N)=O [indium-111 labelled] |  | radio-HPLC | male Swiss nu/nu mice, blood | intravenous, 1 nmol, 5 min |  | intact peptide | 23.3 ± 1.4%
CC(=C(c1ccc(Cl)cc1)c1ccc(OCCN2CCCC2)cc1)c1ccc(Cl)cc1 | NCI-60 tumour cell lines |  |  | 10 µM, mean over cell lines |  | growth inhibition | 21.6%
CC(=O)[O-].O.[Cu+2].[O-]c1ccc(Br)cc1C=NCCN1CCOCC1 | Aspergillus niger |  |  | 20 µL of 100 µM per disc |  | inhibition zone diameter | 26 mm
O=[N+]([O-])c1ccc(C=[N+]2N=C(Nc3ccccc3)[S][Pt-]2([Cl])[Cl])s1 | HEL human lung fibroblasts | altered cell morphology, microscopy |  | confluent cultures |  | cytotoxic concentration | 20 µM
COc1cc(CNC(=O)C[C@H](C)CCC=C(C)C)ccc1OCc1cn(-c2cccc([N+](=O)[O-])c2)nn1 | SF-295 CNS cancer cells | SRB |  | 10 µM, 48 h |  | growth percent | 96.5%
CCC(=O)NCCNC(=O)/N=C(/N)NCCC[C@@H](NC(=O)C(c1ccccc1)c1ccccc1)C(=O)NCc1ccc(O)cc1 | Neuropeptide Y receptor type 1 (NPY1R, Homo sapiens, UniProt P25929, T280A) | antagonist | human cells |  |  | Kb | 0.00086 µM
Cc1nc(C)c(C=[N+]([O-])C(C)(C)C)nc1C |  | Western blot, refers to: TFAM | MPTP mouse model, substantia nigra cytosol | 30 mg/kg |  | increase in protein level | 31.7%
[64Cu+2].c1ccc(CNCc2ccc(CN3CCCN4CCNCCCN(CC4)CC3)cc2)nc1 | CXCR4 |  | NOD/SCID mouse, U87 and U87-stb-CXCR4 xenografts, lungs | iv, 90 min, ex vivo |  | tissue uptake | 8.43 ± 1.06 %ID/g
COc1cc(CNC(=O)C[C@H](C)CCC=C(C)C)ccc1OCc1cn(-c2ccc(Br)cc2)nn1 | SF-268 CNS cancer cells | SRB |  | 10 µM, 48 h |  | growth percent | 71.7%
CC(=O)O[C@H]1CC[C@]2(C)[C@H]3C(=O)C=C4[C@@H]5C[C@@](C)(C(=O)OCc6ccccc6)CC[C@]5(C)CC[C@@]4(C)[C@]3(C)CC[C@H]2C1(C)C | HepG2 | annexin V/7-AAD flow cytometry |  | 8 µM, 24 h |  | apoptotic cells | 21.5%
Cc1ccc(-c2cn([C@@H]3O[C@H](CO)[C@@H](O)[C@H]3O)c3ncnc(N)c23)c(F)c1 | HEK | cytotoxicity |  |  |  | EC50 | > 200 µM
COC(=O)CCn1c2ccc([N+](=O)[O-])cc2c(=O)n1Cc1ccccc1 | Leishmania amazonensis |  | mouse peritoneal macrophages | intracellular amastigotes | baseline: CC50 macrophages over IC50 amastigotes | selectivity index | 8
COc1cc(CNC(=O)C[C@H](C)CCC=C(C)C)ccc1OCc1cn(-c2ccc([N+](=O)[O-])cc2)nn1 | SF-268 CNS cancer cells | SRB |  | 10 µM, 48 h |  | growth percent | 88.8%
N=C(N)NCCC[C@@H]1NC(=O)[C@H](CCCCNC(=O)CNC(=O)CNC(=O)CNC(=O)CC[C@H](NC(=O)CNC(=O)CNC(=O)CNC(=O)CN2CCN(CC(=O)O)CCN(CC(=O)O)CCN(CC(=O)O)CC2)C(=O)NCC(=O)NCC(=O)NCC(=O)NCCCC[C@@H]2NC(=O)[C@@H](Cc3ccccc3)NC(=O)[C@H](CC(=O)O)NC(=O)CNC(=O)[C@H](CCCNC(=N)N)NC2=O)NC(=O)[C@@H](Cc2ccccc2)NC(=O)[C@H](CC(=O)O)NC(=O)CNC1=O [indium-111 labelled] |  |  | female athymic nu/nu mice, kidney | intravenous, 4 h |  | tissue uptake | 2.69 ± 0.1 %ID/g

Excerpt of the above:
SMILES | target or system | assay | test system | conditions | how to read | measurement | result
N=C(N)NCCC[C@@H]1NC(=O)[C@H](CCCCNC(=O)CNC(=O)CNC(=O)CNC(=O)CC[C@H](NC(=O)CNC(=O)CNC(=O)CNC(=O)CN2CCN(CC(=O)O)CCN(CC(=O)O)CCN(CC(=O)O)CC2)C(=O)NCC(=O)NCC(=O)NCC(=O)NCCCC[C@@H]2NC(=O)[C@@H](Cc3ccccc3)NC(=O)[C@H](CC(=O)O)NC(=O)CNC(=O)[C@H](CCCNC(=N)N)NC2=O)NC(=O)[C@@H](Cc2ccccc2)NC(=O)[C@H](CC(=O)O)NC(=O)CNC1=O [indium-111 labelled] |  |  | female athymic nu/nu mice, kidney | intravenous, 4 h |  | tissue uptake | 2.69 ± 0.1 %ID/g
COC(=O)CCn1c2ccc([N+](=O)[O-])cc2c(=O)n1Cc1ccccc1 | Leishmania amazonensis |  | mouse peritoneal macrophages | intracellular amastigotes | baseline: CC50 macrophages over IC50 amastigotes | selectivity index | 8
COc1cc(CNC(=O)C[C@H](C)CCC=C(C)C)ccc1OCc1cn(-c2ccccc2Cl)nn1 | Malme-3M melanoma cells | SRB |  | 10 µM, 48 h |  | growth percent | 68.2%
COc1cc(CNC(=O)C[C@H](C)CCC=C(C)C)ccc1OCc1cn(-c2ccc(Br)cc2)nn1 | SF-268 CNS cancer cells | SRB |  | 10 µM, 48 h |  | growth percent | 71.7%
